Earlier results as cited in several papers.
Lines come from different studies, so protocols differ. ± marks the error that the study gave.
Chain of UniProt P44514 (whole entry, looked up): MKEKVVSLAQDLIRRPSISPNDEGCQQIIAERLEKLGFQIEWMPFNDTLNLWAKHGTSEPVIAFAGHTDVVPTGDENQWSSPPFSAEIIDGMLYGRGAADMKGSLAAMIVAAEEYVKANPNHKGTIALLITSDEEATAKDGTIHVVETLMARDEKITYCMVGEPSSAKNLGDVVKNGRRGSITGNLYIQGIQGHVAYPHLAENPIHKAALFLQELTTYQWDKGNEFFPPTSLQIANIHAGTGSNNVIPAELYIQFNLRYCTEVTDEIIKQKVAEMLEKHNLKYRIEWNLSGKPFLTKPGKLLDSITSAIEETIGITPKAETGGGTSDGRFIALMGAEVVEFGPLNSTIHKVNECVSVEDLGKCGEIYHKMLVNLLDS

Substance	tested on	test	test system	conditions	scale	quantity	value
O=C(O)C(F)(F)C(F)(F)C(F)(F)C(F)(F)C(F)(F)C(F)(F)C(F)(F)F	PPARα (human)	reporter gene, agonist, Gal4 transactivation	human hepatocarcinoma cell line	–	baseline: positive control	efficacy	> 90%
CNC(C)Cc1ccc2c(c1)OCO2 (stereo not drawn)	–	–	–	–	–	pKa	10
COc1cc2c(Oc3ccc4[nH]c(C)cc4c3F)ccnc2cc1OCC1(N)CC1	CYP3A4	enzyme activity, inhibitor	–	added: midazolam	–	IC50	9.56 µM
Cc1cccc(-c2[nH]c(CNc3ccccc3F)nc2-c2ccc3ncnn3c2)n1	–	–	rat	oral, 14 days, non-GLP dose-range study	–	MTD	80 mg/kg/day
COc1ccc2c(c1)[nH]c1c(C)nccc12	human CLK4	kinase activity, inhibitor	–	–	–	IC50	0.05 µM
O=C(O)C(F)(F)C(F)(F)C(F)(F)C(F)(F)C(F)(F)C(F)(F)F	PPARα (human)	reporter gene, agonist, Gal4 transactivation	human hepatocarcinoma cell line	–	baseline: positive control	efficacy	> 90%
N[C@@H](CCC[C@H](NC(=O)CCC(=O)O)C(=O)O)C(=O)O (mixture of isomers)	dapE (Haemophilus influenzae, UniProt P44514)	substrate	–	–	–	Km	730 ± 15 µM
COc1ccc(CC(C)N)cc1 (stereo not drawn)	–	–	–	–	–	pKa	10
KQLGQVMLL	HLA class I histocompatibility antigen, B alpha chain, allele B*48:01 (Homo sapiens, UniProt P01889)	peptide-MHC binding	peptide	–	–	IC50	0.00672 µM

Repeated from above:
Substance	tested on	test	test system	conditions	scale	quantity	value
Cc1cccc(-c2[nH]c(CNc3ccccc3F)nc2-c2ccc3ncnn3c2)n1	–	–	rat	oral, 14 days, non-GLP dose-range study	–	MTD	80 mg/kg/day
